Results collected from several papers.
Every numbered part comes from another study and shows a few of its results, in no order.

Study 1
Target: Interferon regulatory factor 7, full length, phosphomimetic (IRF7, Homo sapiens, UniProt Q92985, residues 1-503, S471D/S472D/S475D/S476D/S477D/S483D/S484D/S487D)
Sequence of UniProt Q92985 (whole entry, unmodified, looked up): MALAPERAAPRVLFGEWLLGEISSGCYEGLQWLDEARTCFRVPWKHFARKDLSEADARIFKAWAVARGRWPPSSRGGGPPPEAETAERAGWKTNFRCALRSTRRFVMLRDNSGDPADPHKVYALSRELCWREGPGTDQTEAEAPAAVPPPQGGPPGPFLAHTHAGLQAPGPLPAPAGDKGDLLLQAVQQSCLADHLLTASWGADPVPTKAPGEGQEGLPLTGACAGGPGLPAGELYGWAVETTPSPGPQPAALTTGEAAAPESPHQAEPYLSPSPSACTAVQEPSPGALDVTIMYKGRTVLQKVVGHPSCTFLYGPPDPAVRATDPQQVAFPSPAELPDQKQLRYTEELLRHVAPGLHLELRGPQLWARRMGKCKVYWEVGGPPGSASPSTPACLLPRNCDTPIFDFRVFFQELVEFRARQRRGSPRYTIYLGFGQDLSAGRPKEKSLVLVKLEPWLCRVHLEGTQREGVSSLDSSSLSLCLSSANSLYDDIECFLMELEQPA
Method: protein-binding microarray
Form: double-stranded DNA, one strand shown
Medium: in vitro
Concentration: 2200 nM top
Setting: 60-bp whole probe
Together with: salmon DNA 0.4 mg/ml
Relative to: random background probes
Reading: higher = stronger binding
Endpoint: fitted relative affinity
Constant ends, left off below: GCCTAGCAC … GTCTTGATTCGCTTGACGCTGCTG
TCAGCTCCCTTTCTCTCTGTGTGCTAG: 2.15 z-score
TTTGATATCAGTCTCGATTAGTGCTAG: 0.707 z-score
CTAGGTTTCGGGTTTCGGTTAGTGCTA: 11.2 z-score
TCAGCTTTCTTTATGTAACTGTGCTAG: 1.64 z-score
TAATATATATATTGTTAGTGTGTGCTA: 0.0652 z-score
GACGGTTACGACACTGGGGACGTGCTA: -0.398 z-score
GACGGTATCGACTTTCGTGACGTGCTA: 1.89 z-score
TTAGGTTTCCTTTCCCTTTTGTGCTAG: 4.86 z-score
TTAGATATCAGACTAGATTAGTGCTAG: -0.553 z-score
TCATACTTCTGTTTTTGACTGTGCTAG: 2.06 z-score
TTAGGTAGCGGTTTCGGTTAGTGCTAG: 5.15 z-score
GACGGTATCGACAATGGGGACGTGCTA: -0.336 z-score
GACGCTCTCGGACTGGGGACGTGCTAG: -0.176 z-score
CTAGATTTCAGACTGGATTAGTGCTAG: 0.124 z-score
GACGATCTCAGTTTCGAGATGTGCTAG: 3.85 z-score
TTAGGACTGAGACTGGATTAGTGCTAG: -0.782 z-score
TCATATACACACTATAGTACTGTGCTA: 0.944 z-score
TTAGATATCGGGTTTCGATTGGTGCTA: 4.51 z-score
GACGATCTCAGTCTCGATACGTGCTAG: 0.508 z-score
TCAGTGCTCATGCTTCTTACTGTGCTA: 0.162 z-score
TTAGGTCTCCTTCGCCTTTAGTGCTAG: 1.19 z-score
CCCAGTCTCATATTTATTAGGTGCTAG: 0.814 z-score

Study 2
Target: RNA binding protein fox-1 homolog 2, RRM domain, GST-SBP tag (RBFOX2, Homo sapiens, UniProt O43251-10, residues 100-194)
Method: RNA Bind-n-Seq
Form: RNA
Medium: in vitro
Concentration: 365 nM
Setting: natural RNA segment, single round, ends assumed
Relative to: no-protein control
Reading: higher = stronger binding
Endpoint: RBNS enrichment (R)
Constant ends, left off below: GGGAGUUCUACAGUCCGACGAUC … UGGAAUUCUCGGGUGCCAA
Construct (chain): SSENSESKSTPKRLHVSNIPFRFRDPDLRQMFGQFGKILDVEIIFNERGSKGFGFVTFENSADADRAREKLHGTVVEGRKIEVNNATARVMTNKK
CUCAGGAAGUGUGUGCUUGUGGCUGCAUCUGCCCGUCUCCCUGGCCCACCAUGUGGCUGCAGGCCAAGCUCUUCAUUGCUGACCAUGAAGAGACCUAGUUACCUGCCAAG: 1.96
UCCCUUUCCAAGGGACACUGGGUUUGCAGACAGCAAGGCUAUGUGGCAGAGAAGAAAAAGUCCAGCAGACUCAGGACUCCUGGGCUGCAGGCCCCCCUCUGCCCUGAUCC: 0.291
UCCUGCCAGCGCAUCGGGGAGGGGUGCUCCUGAGGCCAGGCAUGGCCACCACGUGACGCUGUUCUUAGUUCACUAAUGUUAGCCUUAUUUAGGACAAAGUCAGCCAGACA: 0.867
GCUUAUCUUUCUCUGGAGUUACGGAUUUGCCUGUGGAUUUAAUGCUCACACCAUGCUAUUUAAUUUUUAAAGUAACUUUUCAGAAAAUAUUACUGGCGUUUUGUUCAUUU: 1.1
UUUGUGUGACUAAAAUGAAACAAGACAGUUGAAUUGUGUGACUUGAAGAUUACCAAUGAUUUUGAGGCUUUUCUAUAAUAAAAAGAGGUUCUAACCAUUAUUUGGGAACA: 0.575
CCUAGAGGAGACAGCCUGUCUCUCCUUGUUGCCCCCAAAGCCCAUGCCCUGCCGUGGUGGCAGCUGGGGCUGUGGAUGGGAGGGGUCCCCAACAUGGAUGUGUUGCCCCU: 1.13
ACACAGGUAUUAAAUAUAUCGCUCUAUAUAAUAUUAUAUAUGUGUGUGGUAUCCAAGGAAUCACUUUUAUGAGGGCUAAAGAUAAAGAAUUUGGCCAGAAAAUGCAGCCA: 0.91
CGAGCACUGAGCUGGCCCUACUUCCAGGAUGGAUGCAUCACACUCAAGGACAGGAGCCUGGUCCUUCCCUGAUGGCCUUUGGACCCAGGGCCUGACUUGAGCCACUCCUU: 2.74
UGAUUUGAAUGUUGAUACUUUUUUUUCCUUUACAUUUCCAGUAAGUUUCUUACAGAAAGUACCUGUGAUUUUUUUUAAUGUUUAGAUUUGUAGUCUAGUCUAUUCUGAAG: 0.458
CUUUCAAAAUUCUUAAAUCUUCUGUUCCUCCUUUUUCCAAGGGAAGAGGGCAAAAAGUGGCCUGGGCUCUGUUGGUGUGCGUGUUCCGUGGCGGAGAGAAGAAAAUGGGA: 0.811
UUGCAAGAGGAAAAUUGUCUGUGUUUUAAUCAGCUAAUGAGGAGGCUAUGGGAUGGACAGAGGGCUUCUUGCAGGAGAAUUGAGAAAAGUGACUAUCUUAAGAAUAUUAU: 0.848
AUUUGACUUUGUAUGUCAGUUCCCUGGUUUUUUUGAUAUUGCAUCAUAGGACCUCUGGCAUUUUAGAAUUACUAGCUGAAAAAUUGUAAUGUACCAACAGAAAUAUUAUU: 0.803

Study 3
Target: Phosphate system positive regulatory protein PHO4, full length, GST-tagged (PHO4, Saccharomyces cerevisiae, UniProt P07270, residues 1-312)
Method: competition protein-binding microarray
Form: double-stranded DNA, one strand shown
Medium: in vitro
Concentration: 2 µM
Setting: whole 60-bp probe, lowest competitor level
Together with: Cbf1 competitor, 0.05 µM
Reading: higher = stronger binding
Endpoint: fluorescence intensity
Constant ends, left off below: … GTCTTGATTCGCTTGACGCTGCTG
Residues (chain): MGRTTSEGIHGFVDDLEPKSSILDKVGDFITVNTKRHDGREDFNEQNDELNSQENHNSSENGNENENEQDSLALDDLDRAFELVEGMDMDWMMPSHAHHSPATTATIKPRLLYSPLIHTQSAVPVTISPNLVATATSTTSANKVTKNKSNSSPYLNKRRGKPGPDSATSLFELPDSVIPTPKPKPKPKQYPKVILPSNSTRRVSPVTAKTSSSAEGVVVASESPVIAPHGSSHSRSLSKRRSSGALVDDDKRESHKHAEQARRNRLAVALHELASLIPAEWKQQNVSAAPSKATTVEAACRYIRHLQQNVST
GGAGTTCGGGAGTTGCACGTGGCACCTGGTGACAGC: 14200 a.u.
TCTCGTCTTGCTCTTCTTTTAAGAAATATTTGCCGC: 2820 a.u.
TTCGCTACAAAATAATGCGTGATGGTTTCAGTGAAG: 5570 a.u.
CTTTCCCGATCTTGTCACGGGACTTTAGCACATTTG: 6530 a.u.
TTTATTTATTGAATTCACGTGTTGATGTTTTTTTCA: 14900 a.u.
CACTCGGCCATGAGGCACATGCAAACAAACGCTGCA: 11800 a.u.
TGGACGCAATTGGTTGGTGTGACGCCACTTTCTCTT: 3310 a.u.
AAATCTGTCAGCTTGCACACGCCTTCCGGGGATAGC: 7710 a.u.
GTCTTGTCTCATTGGTAGGTGGGTGTCCCCACTTCA: 5190 a.u.
AAATTACTAAGTTGTCACCGCACTTACCCCGTATGA: 3680 a.u.
CCGGTAAAAGCCGGGAACGTGCGGAACAATTTTTTT: 16100 a.u.
CTTTCCCGATCTTGTCCAGTGGGTGTAGCACATTTG: 4510 a.u.
ATTCAATGTTCTCAGGACGTGCTAAAAGGAAACCCA: 7560 a.u.
AGCGTTGAAGACAAATTCGTGACTCGTTGGTCCTAA: 4290 a.u.
AAATTACTAAGTTGAGCTGTGGGTGACGCCGTATGA: 3990 a.u.
TCAGCCTGCTGGATGCACGTGCGTCTCGGCGCCGCC: 15500 a.u.
ATGGCTTTGGCTTTCCACATGGACATCAAGGTCTAC: 6590 a.u.
CAATCTTGGCGTTCACACGTGGGTATAAAAAGGCAA: 16600 a.u.
TTCGACAGCGCTAACGTTGTGACGGTAAGTGCTTTC: 3680 a.u.
AACCGGGTTATTTTGCACGTGATGGGCACTTGGGAG: 14900 a.u.
AAAAATGGTGGAAAGTGCGTGCGGATTTCTCGAGCC: 8730 a.u.
CTTCTGTAAATTTGATCAGTGGGTGGACGCGCCCCG: 3850 a.u.
AAAGCGGTAATTTGTCTTGTGGGTGCAGATATCTAT: 4720 a.u.
ATCATTTTTTACCATCACGCTTAACCTCGATATCTC: 6260 a.u.
GGTGTCTCTGTCAGCCCCGTGGTCGCCAGCACAGAA: 11000 a.u.

Study 4
Target: Ras GTPase-activating protein-binding protein 1, full length (G3BP1, Homo sapiens, UniProt Q13283)
Sequence of UniProt Q13283 (whole entry, looked up): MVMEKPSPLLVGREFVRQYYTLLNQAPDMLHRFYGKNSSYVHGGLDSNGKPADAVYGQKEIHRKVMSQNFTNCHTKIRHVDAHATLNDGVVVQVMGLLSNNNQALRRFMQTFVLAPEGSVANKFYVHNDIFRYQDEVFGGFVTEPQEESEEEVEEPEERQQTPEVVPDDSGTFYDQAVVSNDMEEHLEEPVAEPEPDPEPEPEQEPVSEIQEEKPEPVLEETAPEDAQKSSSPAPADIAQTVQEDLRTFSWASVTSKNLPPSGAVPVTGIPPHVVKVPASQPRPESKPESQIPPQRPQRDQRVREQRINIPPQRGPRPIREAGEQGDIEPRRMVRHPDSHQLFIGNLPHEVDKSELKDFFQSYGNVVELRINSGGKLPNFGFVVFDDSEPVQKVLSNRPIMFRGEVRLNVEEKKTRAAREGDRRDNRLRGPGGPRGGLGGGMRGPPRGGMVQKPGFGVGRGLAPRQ
Method: RNA Bind-n-Seq
Form: RNA
Medium: in vitro
Concentration: 200 nM
Setting: whole 134-nt RNA, ends assumed
Together with: 150 mM KCl
Relative to: input library
Reading: higher = stronger binding
Endpoint: log2 enrichment
Constant ends, left off below: GGGAGUUCUACAGUCCGACGAUC … UGGAAUUCUCGGGUGUCAAGG
CCUGUGCUACACAUCGUAUGUACCGAAUCGGGCCCCCCGGGGCCCCCCGGGGCCCCCCGGGAAAGUAUUAUGUUACGCCGUUCGGAUCUG: -0.55
UCCUGUGCUACACAUCGUAUGUACCGAAUCGGGAAAAAGGGAAAAAAAGGGUUUUUGGGAAAGUAUUAUGUUACGCCGUUCGGAUCUGCA: -0.333
GCAGGAAGUAAAAACAAAUGGAAAAGCUUCGGAUAGUGGCAGGGGUGGGGGUUGCUAAGGAAAGGGUGGGAUGGGAGUGGGUAAAGAGUU: 0.977
UAACUUUAGAGGUGGAUCUGAUGGAUAUGGCAGUGGACGUGGAUUUGGGGAUGGCUAUAAUGGGUAUGGAGGAGGACCUGGAGGUGGCAA: 0.427
GCAGGAAGUAAAAACAAAUGGAAAUGCUACGGAUAGUGGCAGGGGUGGGGGUUGCUAAGGAAAGGGUGGGAUGGGAGUGGGUAAAGAGUU: 1.64
UUCCCAAGAUGGCGGCGGACGUGUCCGUUACUCACCGGCCCCCGCUGAGCCCUAAGUCUGGGGCCGAAGUCGAAGCCGGCGAUGCCGCGG: -2.4
CUCAAGUCCUGUGCUACACAUCGUAUGUACCGAAUCGGUGGAAAAAGGUUUGGAAAGUAUUAUGUUACGCCGUUCGGAUCUGCACUUCCA: -0.71
UAACUUUAGAGGAGGAUCUGAUGGAUAUGGCAGUGGACGUGGAUUUGGGGAUGACUAUAAUGGGUAUGGAGGAGGACCUGGAGGUGGCAA: 0.558
UGGCCCUGGUGGCAUGCGGGGAGGAAGAGGAGGCCUCAUGGAUCGUGGUGGUCCCGGUGGAAUGUUCAGAGGUGGCCGUGGUGGAGACAG: 0.406
UCAAGUCCUGUGCUACACAUCGUAUGUACCGAAUCGGUUUUUGGAAAAAGGAGGAAAGUAUUAUGUUACGCCGUUCGGAUCUGCACUUCC: -0.683
UAACUUUAGAGGAGGAUCUGAUGGAUAUGGCAGUGGACGUGGAUUUGGGGAUGGCUAUAAUGGGUAUGGACGAGGACCUGGAGGUGGCAA: 0.214
ACCAUGCAGGUGGGCAUCUUUGGGAAGUGGGGCAAGGGGGGGAUAGGGAGGGGGGUAACACUUUGGGAACAGGUGGUCCCACGUCGUUUC: 1.16
UCAAGUCCUGUGCUACACAUCGUAUGUACCGAAUCGGAAGGGGAAGGGGAAGGGGAAAGUAUUAUGUUACGCCGUUCGGAUCUGCACUUC: 0.807
GUCCUGUGCUACACAUCGUAUGUACCGAAUCGGGGAAAAAGGGGAAAAAGGGGUGGGGAAAGUAUUAUGUUACGCCGUUCGGAUCUGCAC: 0.206

For quick reference, copied from above (study 2):
UCCCUUUCCAAGGGACACUGGGUUUGCAGACAGCAAGGCUAUGUGGCAGAGAAGAAAAAGUCCAGCAGACUCAGGACUCCUGGGCUGCAGGCCCCCCUCUGCCCUGAUCC: 0.291
UUGCAAGAGGAAAAUUGUCUGUGUUUUAAUCAGCUAAUGAGGAGGCUAUGGGAUGGACAGAGGGCUUCUUGCAGGAGAAUUGAGAAAAGUGACUAUCUUAAGAAUAUUAU: 0.848
ACACAGGUAUUAAAUAUAUCGCUCUAUAUAAUAUUAUAUAUGUGUGUGGUAUCCAAGGAAUCACUUUUAUGAGGGCUAAAGAUAAAGAAUUUGGCCAGAAAAUGCAGCCA: 0.91
CCUAGAGGAGACAGCCUGUCUCUCCUUGUUGCCCCCAAAGCCCAUGCCCUGCCGUGGUGGCAGCUGGGGCUGUGGAUGGGAGGGGUCCCCAACAUGGAUGUGUUGCCCCU: 1.13
